Results pooled from the literature.
Protocols differ between the studies behind these lines. Numbers after ± are the reported error.

Structure (SMILES)	cell line	assay	system	conditions	scale	measurement	result
CC/C(=N\NC(=O)NCc1cccc(O)c1)c1ccc(O)c(C)c1O	SK-OV-3	Western blot	2D culture	20 µM, 1 h, unit not given	reference: β-actin	TAZ protein level	1.49 ± 0.64
CC1(C)CCC(CN2CCN(c3ccc(C(=O)NS(=O)(=O)c4ccc(NCC5CCOCC5)c([N+](=O)[O-])c4)c(Oc4cnc5[nH]ccc5c4)c3)CC2)=C(c2ccc(Cl)cc2)C1	THP-1	annexin V/PI flow cytometry, measured: annexin V+/PI+	–	0.2 µM, 24 h	–	late apoptotic cells	1.9%
CC(=O)c1cc2c(o1)C(=O)c1ccccc1C2=O	BT-16	cell viability, MTT	–	10 µM, 72 h	–	inhibition	92.4%
O=C1[C@H]2CCCN2[C@H](c2cccc3c2OCO3)N1c1ccc(Cl)c(Cl)c1 (racemic)	PC-12 cells expressing mutant huntingtin	carbachol-stimulated IP3R Ca2+ release	–	50 µM, 2 days, together with: 1 mM carbachol	reference: mutant huntingtin alone	Ca2+ release	no effect
Cn1cc(-n2cnc3c(NCc4nc5cc(Cl)c(Cl)cc5[nH]4)nc(N4CCOCC4)nc32)cn1	MDA-MB-231	qRT-PCR, measured: ATM	–	50 nM, 6 h, unit not given	reference: untreated	mRNA level	0.587
Cn1cc(-c2ccc(-c3cncc(Cl)c3N3CCC4(CCNC4=O)CC3)cc2)cn1	COLO 205	gene expression, microarray, measured: HIST1H4D mRNA	–	concentration not given, 2 h	reference: untreated cells	log2 fold change	-2.53
CCCS(=O)(=O)Nc1ccc(F)c(C(=O)c2c[nH]c3ncc(-c4ccc(Cl)cc4)cc23)c1F	SK-MEL-239 (BRAF V600E)	ERK phosphorylation, Western blot	–	1 h	–	IC75	214 nM
CCn1cc(-c2cc(Cn3ccoc3=N)cc3c2CCN([C@@H](C)c2cc(OC)ccn2)C3=O)c(C(F)(F)F)n1	Granta-519	cell growth, inhibitor	–	120 h	–	EC50	143 nM
C=CCn1c(=O)c2cnc(Nc3ccc(N4CCN(C)CC4)cc3)nc2n1-c1ccc2c(n1)[C@@](O)(CC)CC2	MDA-MB-231	flow cytometry	–	concentration not given	–	G2/M phase cells	22.9%
O=C(/C=C/c1cccc(S(=O)(=O)Nc2ccccc2)c1)NO	BT-16	cell viability, MTT	–	10 µM, 72 h	–	inhibition	88.9%
O=C(/C=C/C=C/C=C/C1CCCCC1)NC1=C[C@@](O)(/C=C/C=C/C=C/C(=O)NC2=C(O)CCC2=O)[C@@H]2O[C@@H]2C1=O	DMS-53	cell growth, CellTiter-Glo	–	78 h	–	GI50	13.8 µM
Cn1c(Nc2nc3ccc(C(F)(F)F)cc3s2)nc2cc(C(=O)NCCOCCO)ccc21	SH-SY5Y	RNA-seq, measured: LDLR mRNA	–	5 µM, 5 h	reference: untreated cells	fold change	1.7
CC1(C)Oc2ccc(CC3=C(c4ccc(O)cc4)C(=O)NC3=O)cc2C[C@@H]1O	RPTEC	Griess	–	10 µg/mL, 24 h, together with: LPS 1 µg/mL	reference: LPS-treated cells	nitric oxide production decrease	~18%
CCCCCCCCCCCCCCCC[N+](C)(C)C	BT-16	cell viability, MTT	–	10 µM, 72 h	–	inhibition	82%
COc1cnc2cccc(N3CCc4c(cc(Cn5ccnc5C)cc4-c4cn(C)nc4C(F)(F)F)C3=O)c2c1	COLO-320-HSR	cell growth, inhibitor	–	120 h	–	EC50	1500 nM
COc1ccc(NC(=S)N/N=C/c2cccc3cc4ccccc4nc23)cc1	HeLa	TMRE flow cytometry	–	IC50, 48 h, unit not given, together with: N-acetylcysteine	reference: DMSO control	mitochondrial membrane potential	1.54 ± 2.36
O=C(C[C@@H](C(F)F)n1ccc(F)n1)N1CCC(O)(Cn2cnc3c(cnn3-c3ccc(F)cc3)c2=O)CC1	CHP-212 resistant	PI flow cytometry	–	0.3 µM, 24 h	–	G2/M phase cells	13.2%
CC(C)NCC(O)c1ccc(O)c(O)c1 (centres unmarked)	mouse ventricular cardiomyocytes	–	–	dose not given, 0.187 s	–	sarcomere length	1.68 µm
CCCCCCCCCCCCCCCC[N+](C)(C)CCN(Cc1ccc(OC)cc1)c1ncccn1	BT-16	cell viability, MTT	–	10 µM, 72 h	–	inhibition	94.8%
Oc1nc2nonc2cc1Nc1ccc(F)cc1	L6	–	–	concentration not given	–	activity	inactive

Excerpt of the above:
Structure (SMILES)	cell line	assay	system	conditions	scale	measurement	result
Cn1cc(-c2ccc(-c3cncc(Cl)c3N3CCC4(CCNC4=O)CC3)cc2)cn1	COLO 205	gene expression, microarray, measured: HIST1H4D mRNA	–	concentration not given, 2 h	reference: untreated cells	log2 fold change	-2.53
Cn1cc(-n2cnc3c(NCc4nc5cc(Cl)c(Cl)cc5[nH]4)nc(N4CCOCC4)nc32)cn1	MDA-MB-231	qRT-PCR, measured: ATM	–	50 nM, 6 h, unit not given	reference: untreated	mRNA level	0.587
